Measured values from different studies.
Protocols differ between the studies behind these lines. Several values in a cell are separate wells, animals, samples, runs or records.
Target: Tyrosine-protein kinase Fgr (FGR, Homo sapiens, UniProt P09769)
Chain of UniProt P09769 (whole entry, looked up): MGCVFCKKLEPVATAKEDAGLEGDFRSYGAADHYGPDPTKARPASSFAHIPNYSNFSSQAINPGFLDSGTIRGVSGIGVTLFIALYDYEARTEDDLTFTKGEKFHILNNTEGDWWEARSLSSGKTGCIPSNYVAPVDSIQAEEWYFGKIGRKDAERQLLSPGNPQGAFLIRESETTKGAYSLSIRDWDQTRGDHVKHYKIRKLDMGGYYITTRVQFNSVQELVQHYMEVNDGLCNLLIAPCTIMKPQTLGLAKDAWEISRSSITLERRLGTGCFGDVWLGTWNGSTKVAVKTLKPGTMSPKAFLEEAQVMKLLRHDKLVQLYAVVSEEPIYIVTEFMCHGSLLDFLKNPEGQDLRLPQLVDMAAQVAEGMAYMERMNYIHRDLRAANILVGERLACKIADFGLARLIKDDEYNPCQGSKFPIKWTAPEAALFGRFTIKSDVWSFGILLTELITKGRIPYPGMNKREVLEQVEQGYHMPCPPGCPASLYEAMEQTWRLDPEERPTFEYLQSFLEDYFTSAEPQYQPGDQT

Structure (SMILES) | test | setting | how to read | endpoint | result
Cc1cccc(O[C@H]2CCC[C@@H](C(C)CNCc3ccncc3)C2)c1 (relative stereo) | cell-free assay, inhibitor | 1 µM | – | inhibition | 0%
CCn1cc(C(=O)O)c(=O)c2c(N)c(F)c(NC3CCCCC3)cc21 | kinase activity | 0.1 µM, with: ATP at Km | – | inhibition | -10.7%
COc1ccc(NC(=O)Nc2ccc3c(c2)C(=O)N(C(C)CO)CC(C)C(CN(C)Cc2ccc4c(c2)OCO4)O3)cc1 (centres unmarked) | kinase activity, KinaseProfiler | 0.03 µM, species human | relative to: control | remaining activity | 102%
NC(=O)C[C@H]1CCc2sc3ncnc(O[C@H]4CC[C@H](N5CCOCC5)CC4)c3c21 | enzyme activity, inhibitor, radiometric | 10 µM | – | inhibition | 18%
C=CC(=O)N1CCc2ccc(-n3c(=O)ccc4cnc5ccc(-c6cnn(C)c6)cc5c43)cc21 | KINOMEscan | 1 µM | relative to: DMSO control | remaining binding | 100%
CNC(=O)C[C@H](Cc1ccc(C#N)cc1)NC(=O)c1cc(-c2ccc(CN[C@H](C)c3ccc(C)cc3)o2)ccc1Cl | enzyme activity, inhibitor | 1 µM | – | activity vs control | 94%
C=CC(=O)Nc1cccc(-c2cnc3[nH]cc(C(=O)NC(C)(C)C)c3n2)c1 | kinase activity | 0.1 µM | – | inhibition | 5% and 3%
CNC1C[S+]2CC[S+]3CC[S+](C1)[Ru-4]321([N]=C=S)[n]2c3ccc(OC)cc3c3c4c(c5cc(F)c[n+]1c5c32)C(=O)NC4=O (centres unmarked) | KinomeScan | 0.1 µM | relative to: untreated | remaining binding | 90%
C[C@H]1CN(C(=O)c2cn(-c3ccnc(N)n3)c3cc(C#CC4(O)CCCCC4)ccc23)CCN1 | enzyme activity, inhibitor, FRET | 1 µM | – | inhibition | 1%
CCN1CCN(Cc2ccc(C(=O)Nc3ccc(C)c(NCc4cnc5[nH]ccc5c4OC)c3)cc2C(F)(F)F)CC1 | binding, competition with immobilised ligand | 1 µM | – | remaining binding | 1%
Nc1ncc2c(n1)-c1c([nH]c3ccc(C4=CCOCC4)cc13)CCC2 | binding, competition with immobilised ligand | 1 µM | – | remaining binding | 97%
CC(C)=CC1OC(C)(C)C2C=C3C(=O)C(Cl)=CC(O)C3C3C(O)C4OC4C(=O)C132 (centres unmarked) | cell-free assay, competition with immobilised ligand | 10 µM | – | remaining binding | 88%
COc1cc(Nc2nccc(-c3cnn4nc(OC)ccc34)n2)cc(C(F)(F)F)c1 | binding, competition with immobilised ligand | 1 µM | – | remaining binding | 86%
C=CC(=O)N1CCCC(n2c(=O)c3ncccc3n(Cc3ccc(Oc4ccccc4)cc3)c2=O)C1 (centres unmarked) | cell-free assay, competition with immobilised ligand | 1 µM | – | remaining binding | 100%
